Published values of several laboratories.
Compare with care: the assays were run in different laboratories.
Cell line: HCT-116

SMILES | effect on | method | time | relative to | selectivity index
CC(=NN=c1[nH]c(C)cs1)c1c(O)c2ccccc2oc1=O | cell growth | MTT | – | IC50 BJ-1 over HCT-116 | > 3.07
CC(C)c1ccc(/C=C2\N=C(SCC(=O)O)N(c3ccccc3)C2=O)cc1 | – | – | – | BJ1 IC50 over HCT-116 IC50 | 1.8
CCn1c(C)csc1=NN=C(C)c1c(O)c2ccccc2oc1=O | cell growth | MTT | – | IC50 BJ-1 over HCT-116 | > 2.75
CC1(P2(=O)CCCCC2)C=CCC=C1 | – | MTT | 72 h | IC50 HaCaT over IC50 HCT-116 | 1
CCn1c(C)c(N=Nc2ccccc2)sc1=NN=C(C)c1c(O)c2ccccc2oc1=O | cell growth | MTT | – | IC50 BJ-1 over HCT-116 | > 2.12
COc1nc(NCc2cn(-c3ccc(C(N)=O)cc3)nn2)nc(OC)n1 | – | MTT | 72 h | normal colonocytes over HCT-116 | 0.24
O=c1[nH]cc(F)c(=O)[nH]1 | cytotoxicity | MTT | – | HSF over HCT-116 IC50 | 4.51
COc1nc(NCc2cn(-c3ccc(NC(=O)c4ccc(Br)cc4)cc3)nn2)nc(OC)n1 | – | MTT | 72 h | normal colonocytes over HCT-116 | 0.27
O=P1(c2ccccc2)CCCCC1 | – | MTT | 72 h | IC50 HaCaT over IC50 HCT-116 | 1
COc1nc(NCc2cn(-c3ccc(NC(=O)c4ccccc4)cc3)nn2)nc(OC)n1 | – | MTT | 72 h | normal colonocytes over HCT-116 | 0.96
Cc1cc(NS(=O)(=O)c2ccc(NC(=O)/C(C#N)=C/c3ccc(N4CCCC4)cc3)cc2)no1 | cytotoxicity | MTT | – | HSF over HCT-116 IC50 | > 2.03
COc1nc(NCc2cn(-c3ccc(NC(=O)c4ccc([N+](=O)[O-])cc4)cc3)nn2)nc(OC)n1 | – | MTT | 72 h | normal colonocytes over HCT-116 | 0.16
COc1cccc2c1C(=O)c1c(O)c3c(c(O)c1C2=O)C[C@@](O)(C(=O)CO)C[C@@H]3O[C@H]1C[C@H](N)[C@H](O)[C@H](C)O1 | – | MTT | 72 h | IC50 HaCaT over IC50 HCT-116 | 1.5
CC(=NN=c1scc(-c2ccccc2)n1C)c1c(O)c2ccccc2oc1=O | cell growth | MTT | – | IC50 BJ-1 over HCT-116 | > 2.36
COc1nc(NCc2cn(-c3ccc(NC(=O)c4ccc(C)cc4)cc3)nn2)nc(OC)n1 | – | MTT | 72 h | normal colonocytes over HCT-116 | 0.42
